Results pooled from the literature.
Compare with care: the assays were run in different laboratories. Several values in a cell are separate wells, animals, samples, runs or records. Numbers after ± are the reported error. ≈ marks a conversion by molar mass, not a printed value.

SMILES | organism | assay | system | conditions | how to read | measurement | value
Cc1cc(OC(C)C)ccc1C(=O)C(C)(C)NC(=O)c1sccc1C | Botrytis cinerea | germ tube elongation | B05.10 | 10 µg/mL | – | inhibition | 98 ± 3.4%
C=CC[C@@H]1c2ccc(OC)c(OC)c2CN2CCc3cc4c(cc3[C@H]12)OCO4 | Staphylococcus aureus | – | P2rx7+/+ mice, skin wound infection | dose not given, day 4 | reference: day 0 | relative wound size | 0.54 and 1.12 and 0.63 and 0.24 and 0.34 and 0.35
COc1ccc(Nc2cnnc3cc(-c4ccc(S(=O)(=O)N5CCN(C)CC5)cc4)ccc23)cc1 | Schistosoma mansoni | – | adult worms | 10 µM, 48 h | direction not given | phenotypic severity score | 0
CN(C)c1ccc(O)c2c1C[C@H]1C[C@H]3[C@H](N(C)C)C(O)=C(C(N)=O)C(=O)[C@@]3(O)C(O)=C1C2=O | Brugia malayi | – | SCID mouse, peritoneal cavity | dose not given, 6 weeks post-treatment, dosing x28d | – | maximum microfilaria count | 0 microfilariae per mouse
Cc1ccc(NC(=O)N2Cc3[nH]cnc3C[C@H]2c2nc(-c3ccc4c(c3)OCO4)no2)cc1 | Caenorhabditis elegans | – | N2 | 1.56 µM | – | median lifespan | 21 days
C[C@H](CCCC(C)(C)O)[C@H]1CC[C@H]2[C@@H]3CC=C4C[C@@H](O)CC[C@]4(C)[C@H]3CC[C@]12C | Human rotavirus | – | Caco-2, Wa | – | – | EC50 | 190 nM
C=C1[C@H](CO)[C@@H](O)C[C@@H]1n1cnc2c(=O)[nH]c(N)nc21 | Hepatitis B virus | item: HBV pgRNA | chronic HBV infection patients | 0.5 mg/day, 28 days | reference: baseline | maximum change in serum pgRNA | -1.05 log10 copies/mL
CC1=C(Cn2cnc([N+](=O)[O-])n2)C(=O)c2ccccc2C1=O | Schistosoma mansoni | – | adult worms | 10 µM, 48 h | – | killing | 40.7%
CC(C)[C@@H](C)Nc1nc(-c2cccs2)nc(Cl)c1-c1c(F)cc(N)cc1F | Schistosoma mansoni | worm motility | adult worms ex vivo | 24 h | – | EC50 | < 300 nM
CC1=C(Cc2cn(CCN3CCC(F)(F)CC3)nn2)C(=O)c2ccccc2C1=O | Schistosoma mansoni | – | adult worms | 25 µM, 72 h | – | killing | 53.8%
CO[C@H]1/C=C/O[C@@]2(C)Oc3c(C)c(O)c4c(c3C2=O)C2=NC3(CCN(CC(C)C)CC3)NC2=C(NC(=O)/C(C)=C\C=C\[C@H](C)[C@H](O)[C@@H](C)[C@@H](O)[C@@H](C)[C@H](OC(C)=O)[C@@H]1C)C4=O | Mycobacteroides abscessus | – | ATCC 19977, caseum surrogate | 5 d, non-replicating | – | MBC | 72 µM (≈ 61 µg/mL)
CC1=C(Cn2cc(CBr)nn2)C(=O)c2ccccc2C1=O | Schistosoma mansoni | – | adult worms | 25 µM, 48 h | – | killing | 50%
CCc1nn(C)c2nc(-c3ccc(C(=O)O)cc3)nc(NCc3ccc(F)cc3)c12 | Cryptosporidium parvum | – | HCT-8 | 6 x EC90, 6 h | reference: DMSO control | parasite number | 95.6% and 123% and 81.7% and 107%
CC1=C(Cn2cc(CN3CCNCC3)nn2)C(=O)c2ccccc2C1=O | Schistosoma mansoni | – | adult worms | 10 µM, 48 h | – | killing | 46.2%
Nc1nc(-c2ccccc2)nc2[nH]nc(Nc3ccc(C(F)(F)F)cc3)c12 | coxsackievirus B3 | – | 31-1-93, NMRI mice, CVB3 chronic myocarditis | oral, 100 mg/kg twice daily, day 5, dosed days 3 to 10, score scale 0 to 7 | direction not given | clinical score | 0.7
COc1cc(F)c(-c2c(Cl)nc(-c3cccs3)nc2NCC2(C)COC2)c(F)c1 | Schistosoma mansoni | worm motility | adult worms ex vivo | 24 h | – | EC50 | < 300 nM
N#CC(=C1C=CC(=NOC(=O)c2ccccc2)C=C1)c1ccccc1 | Kluyveromyces marxianus | broth dilution | ATCC 204093 | 48 h, 37 °C | – | MFC | 256 µg/mL (≈ 784 µM)
N=C(N)c1ccc(OCc2cc(COc3ccc(C(=N)N)cc3)cc(-c3ccccc3)c2)cc1 | Escherichia coli | checkerboard | mcr-1 polymyxin-resistant | unit not given, together with: rifampicin | lower = stronger synergy | FICI | 0.047
CN1CCN(S(=O)(=O)c2ccc(-c3ccc4c(Nc5cnccn5)cnnc4c3)cc2)CC1 | Schistosoma mansoni | – | adult worms | 10 µM, 1 h | direction not given | phenotypic severity score | 0
CC(=O)ON=C1C=CC(=C(C#N)c2ccccc2)C=C1 | Kluyveromyces marxianus | broth dilution | ATCC 204093 | 48 h, 37 °C | – | MFC | 16 µg/mL (≈ 60.5 µM)
CC1=C(Cn2ccnc2[N+](=O)[O-])C(=O)c2ccccc2C1=O | Schistosoma mansoni | – | adult worms | 10 µM, 24 h | – | killing | 42.5%
Fc1ccc(N/N=C/c2ccc(-c3ccc(/C=N/Nc4ccc(F)cc4)cc3)cc2)cc1 | Aspergillus terreus | – | ATCC MYA-3633 | – | reference: mammalian CC50 over MIC | selectivity ratio | < 0.6
COC[C@H]1O[C@@H]2O[C@@H]3[C@@H](OC)[C@@H](OC)[C@@H](O[C@@H]4[C@@H](OC)[C@@H](OC)[C@@H](O[C@@H]5[C@@H](OC)[C@@H](OC)[C@@H](O[C@@H]6[C@@H](OC)[C@@H](OC)[C@@H](O[C@@H]7[C@@H](OC)[C@@H](OC)[C@@H](O[C@@H]1[C@@H](OC)[C@H]2OC)O[C@@H]7COC)O[C@@H]6COC)O[C@@H]5COC)O[C@@H]4COC)O[C@@H]3COC | Escherichia coli | LuxR reporter, antagonist | DH5α sensor strain | 200 µM, together with: OHHL 200 nM | – | inhibition | -1 ± 2%
CCOC(=O)C1=C(CN2CCC[C@H]2C(=O)Nc2cccc(B(O)O)c2)NC(c2nccs2)=N[C@@H]1c1ccc(F)cc1Br | Hepatitis B virus | HBV DNA reduction, qPCR, item: positive-strand DNA | HepDES19 | 3 days | – | EC50 | 37700 ± 8020 nM
COC(=O)[C@H](Cc1ccc(O)cc1)NCc1cc2ccccc2nc1SC | Pseudomonas aeruginosa | – | – | 8 µg/mL, together with: pentamidine 50 µM | reference: control | growth | 98%

SMILES | organism | assay | system | conditions | how to read | measurement | value
N=C(N)c1ccc(OCCCCCOc2ccc(C(=N)N)cc2)cc1 | Escherichia coli | – | BW25113 | concentration not given, lowest-FICI combination, together with: novobiocin | – | MIC in combination | 50 µg/mL
CC1=C(Cc2cn(CCO)nn2)C(=O)c2ccccc2C1=O | Schistosoma mansoni | – | adult worms | 25 µM, 48 h | – | killing | 55.2%
COC(=O)[C@H](Cc1c[nH]c2ccccc12)NCc1cc2ccccc2nc1OC | Pseudomonas aeruginosa | – | – | 128 µg/mL, together with: pentamidine 50 µM | reference: control | growth | 64.7%
CC1=C(Cc2cn(CCOS(=O)(=O)c3ccc(C)cc3)nn2)C(=O)c2ccccc2C1=O | Schistosoma mansoni | – | adult worms | 25 µM, 24 h | – | killing | 34%
O=C(Nc1ccc([N+](=O)[O-])cc1Cl)c1cc(Cl)ccc1O | human adenovirus C5 wild type | qPCR | A549 | 100 nM, 24 h post-infection | reference: DMSO control | viral genome replication | decreased
C[C@@H](CO)CCC[C@@H](C)[C@H]1CC[C@H]2[C@@H]3CC=C4C[C@@H](O)CC[C@]4(C)[C@H]3CC[C@]12C | Human rotavirus | – | MA104, DS-1 | – | – | EC50 | 720 nM
CC1=C(Cn2cc(CN3CCN(C(=O)OC(C)(C)C)CC3)nn2)C(=O)c2ccccc2C1=O | Schistosoma mansoni | – | adult worms | 25 µM, 72 h | – | killing | 51%
OC(Cn1cncn1)(Cn1cncn1)c1ccc(F)cc1F | Candida albicans | broth microdilution | 15 | 24 h, compound alone | – | MIC | 1 µg/mL (≈ 3.27 µM)
CN[C@H](CC(C)C)C(=O)N[C@H]1C(=O)N[C@@H](CC(N)=O)C(=O)N[C@H]2C(=O)N[C@H]3C(=O)N[C@H](C(=O)N[C@H](C(=O)O)c4cc(O)cc(O)c4-c4cc3ccc4O)[C@H](O)c3ccc(c(Cl)c3)Oc3cc2cc(c3O[C@@H]2O[C@H](CO)[C@@H](O)[C@H](O)[C@H]2O[C@H]2C[C@](C)(N)[C@H](O)[C@H](C)O2)Oc2ccc(cc2Cl)[C@H]1O | Staphylococcus aureus | – | MRSA, 10 isolates | serum 0% | – | MIC50 | 2 µg/mL
N=C(N)c1ccc(OCc2cccc(COc3ccc(C(=N)N)cc3)c2)cc1 | Escherichia coli | – | BW25113 | concentration not given, lowest-FICI combination, together with: novobiocin | – | MIC in combination | 25 µg/mL
CC(C)n1ncc2c(C(=O)NCC3(C)CNC3)cc(C3CC3)nc21 | Enterovirus D68 | cytopathic effect | RD, US/KY/14-18953 | 150 nM | – | cell protection | 10.7% and 9.15% and 6.76%
C[C@H]1c2cccc(O)c2C(=O)C2=C(O)[C@]3(O)C(=O)C(C(N)=O)=C(O)[C@@H](N(C)C)[C@@H]3[C@@H](O)[C@@H]21 | Brugia malayi | – | SCID mouse | dose not given, 6 weeks post-treatment, dosing x42d | – | maximum adult worm burden | 12 worms per mouse
Cc1ccc(Nc2cnnc3ccc(-c4ccc(N5CCN(C)CC5)cc4)cc23)cn1 | Schistosoma mansoni | – | adult worms | 10 µM, 24 h | direction not given | phenotypic severity score | 1
OC(Cn1cncn1)(Cn1cncn1)c1ccc(F)cc1F | Candida tropicalis | EUCAST | – | 48 h | – | MIC50 | 100 µM
CN1CCN(c2ccc(-c3ccc4c(Nc5cnccn5)cnnc4c3)cc2)CC1 | Schistosoma mansoni | – | adult worms | 10 µM, 5 h | direction not given | phenotypic severity score | 0
OCCN(CCO)c1nc(-c2cccs2)nc(Cl)c1-c1c(F)cc(F)cc1F | Schistosoma mansoni | worm motility | adult worms ex vivo | 24 h | – | EC50 | 3540 nM
COc1ccc(Nc2cnnc3cc(-c4ccc(N5CCN(C)CC5)cc4)ccc23)cc1 | Schistosoma mansoni | – | adult worms | 10 µM, 1 h | direction not given | phenotypic severity score | 0
COC(=O)[C@H](Cc1c[nH]c2ccccc12)NCc1cc2ccccc2nc1SC | Pseudomonas aeruginosa | – | – | 4 µg/mL, without pentamidine | reference: control | growth | 100%
CN1CCN(S(=O)(=O)c2ccc(-c3ccc4c(Nc5ncccn5)cnnc4c3)cc2)CC1 | Schistosoma mansoni | – | adult worms | 10 µM, 24 h | direction not given | phenotypic severity score | 0
N=C(N)c1ccc(OCc2cc(Br)cc(COc3ccc(C(=N)N)cc3)c2)cc1 | Escherichia coli | checkerboard | mcr-3 polymyxin-resistant | unit not given, together with: rifampicin | lower = stronger synergy | FICI | 0.078
COc1ccc(Nc2cnnc3cc(-c4cnc(N5CCN(C)CC5)nc4)ccc23)cc1Cl | Schistosoma mansoni | – | adult worms | 10 µM, 1 h | direction not given | phenotypic severity score | 1
COc1ccc(N/N=C/c2ccc(-c3cccc(/C=N/Nc4ccc(OC)cc4)c3)cc2)cc1 | Aspergillus terreus | – | ATCC MYA-3633 | – | reference: mammalian CC50 over MIC | selectivity ratio | < 0.6
Cc1ccc(Nc2cnnc3ccc(-c4ccc(N5CCCN(C)CC5)cc4)cc23)cn1 | Schistosoma mansoni | – | adult worms | 10 µM, 24 h | direction not given | phenotypic severity score | 4
CC(=O)NC[C@H]1CN(c2ccc(N3CCOCC3)c(F)c2)C(=O)O1 | Staphylococcus aureus | – | MRSA, 10 isolates | serum 50% | – | MIC50 | 2 µg/mL

Some of these lines once more:
SMILES | organism | assay | system | conditions | how to read | measurement | value
CN1CCN(S(=O)(=O)c2ccc(-c3ccc4c(Nc5ncccn5)cnnc4c3)cc2)CC1 | Schistosoma mansoni | – | adult worms | 10 µM, 24 h | direction not given | phenotypic severity score | 0
COc1cc(F)c(-c2c(Cl)nc(-c3cccs3)nc2NCC2(C)COC2)c(F)c1 | Schistosoma mansoni | worm motility | adult worms ex vivo | 24 h | – | EC50 | < 300 nM
CC1=C(Cc2cn(CCN3CCC(F)(F)CC3)nn2)C(=O)c2ccccc2C1=O | Schistosoma mansoni | – | adult worms | 25 µM, 72 h | – | killing | 53.8%
CC(=O)NC[C@H]1CN(c2ccc(N3CCOCC3)c(F)c2)C(=O)O1 | Staphylococcus aureus | – | MRSA, 10 isolates | serum 50% | – | MIC50 | 2 µg/mL
Cc1ccc(NC(=O)N2Cc3[nH]cnc3C[C@H]2c2nc(-c3ccc4c(c3)OCO4)no2)cc1 | Caenorhabditis elegans | – | N2 | 1.56 µM | – | median lifespan | 21 days
COC(=O)[C@H](Cc1ccc(O)cc1)NCc1cc2ccccc2nc1SC | Pseudomonas aeruginosa | – | – | 8 µg/mL, together with: pentamidine 50 µM | reference: control | growth | 98%
